# Assay results collected from several papers.
# Each line is one published result; not all experiments were run side by side. Values joined by “and” are separate records of one study, mostly repeats; a detail may differ. ± gives the spread as reported.
# B1: interferon gamma; sequence looked up; chain QDPYVKEAENLKKYFNAGHSDVADNGTLFLGILKNWKEESDRKIMQSQIVSFYFKLFKNFKDDQSIQKSVETIKEDMNVKFFNSNKKKRDDFEKLTNYSVTDLNVQRKAIHELIQVMAELSPAAKTGKRKRSQMLFRG
# B2: human LAMP1; sequence looked up; chain AMFMVKNGNGTACIMANFSAAFSVNYDTKSGPKNMTFDLPSDATVVLNRSSCGKENTSDPSLVIAFGRGHTLTLNFTRNATRYSVQLMSFVYNLSDTHLFPNASSKEIKTVESITDIRADIDKKYRCVSGTQVHMNNVTVTLHDATIQAYLSNSSFSRGETRCEQDRPSPTTAPPAPPSPSPSPVPKSPSVDKYNVSGTNGTCLLASMGLQLNLTYERKDNTTVTRLLNINPNKTSASGSCGAHLVTLELHSEGTTVLLFQFGMNASSSRFFLQGIQLNTILPDARDPAFKAANGSLRALQATVGNSYKCNAEEHVRVTKAFSVNIFKVWVQAFKVEGGQFGSVEECLLDENSMLIPIAVGGALAGLVLIVLIAYLVGRKRSHAGYQTI
# B3: recombinant human GDNF; sequence looked up; chain SPDKQMAVLPRRERNRQAAAANPENSRGKGRRGQRGKNRGCVLTAIHLNVTDLGLGYETKEELIFRYCSGSCDAAETTYDKILKNLSRNRRLVSDKVGQACCRPIAFDDDLSFLDDNLVYHILRKHSAKRCGCI
Substance,target or system,assay,system,conditions,scale,measurement,value
B1 (interferon gamma),,proteinuria inducer,FVB mice,"dose not given, 48 h",,urine albumin/creatinine ratio,14.5 and 16.7 and 15.1 and 15.4 and 28.6 and 13.6 and 15.7 and 11.9
difelikefalin,,,Japanese haemodialysis patients with pruritus,"intravenous, 1.0 µg/kg, 8 weeks",,PGIC very much worse,0%
maraviroc,,"ELISA, item: sRAGE","mouse, non-infected, serum",dose not given,baseline: PBS control,fold change,1.9 fold
Pam2CSK4,,,"APP/PS1 mouse, cortex","local injection, dose not given, unit not given",baseline: injected over adjacent side,OC-positive amyloid level,0.872 and 1.16
human RAB1B,CYB5R4 knockout human cells,"PP4 interaction, 3xFLAG-PP4C IP-MS",,concentration not given,baseline: CYB5R4 KO over parental,log2 fold change,-2.21
liraglutide,,,"Wistar rat, female, diet-induced obese","subcutaneous, increasing doses once daily, 28 days",,body weight reduction,-6.8%
heparin sodium,,,human,"intravenous infusion, 8 IU/kg/h, day 1 to 6",,aPTT AUEC,5270 h·s
semaglutide,,,"Wistar rat, male, diet-induced obese, blood, fasted","subcutaneous, dose not given, after 10 weeks treatment",,serum HDL cholesterol,29 ± 1 mg/dL
B2 (human LAMP1),PP6C (human),"co-immunoprecipitation, IP-MS",CYB5R4 knockout cells,concentration not given,baseline: CYB5R4 knockout over parental,log2 fold change,-0.97
cotadutide,,"metabolomics, item: hepatic urea","ob/ob mice on AMLN diet, NASH model, liver",dose not given,,metabolite level,1.38 ± 0.13 scaled intensity
B3 (recombinant human GDNF),,"cell counting on sections, item: tyrosine hydroxylase","rat, 6-OHDA lesion model, substantia nigra pars compacta, lesioned side",3 µg/24 h,,TH-immunoreactive cell count,383 ± 61.2

# Excerpt of the above:
Substance,target or system,assay,system,conditions,scale,measurement,value
semaglutide,,,"Wistar rat, male, diet-induced obese, blood, fasted","subcutaneous, dose not given, after 10 weeks treatment",,serum HDL cholesterol,29 ± 1 mg/dL
